Published values gathered from unrelated publications.
Numbered parts are unrelated; each lists some results of a single study. Positions count from the first letter of the parent shown.

Block 1
Target: Interferon regulatory factor 7, full length, phosphomimetic (IRF7, Homo sapiens, UniProt Q92985, residues 1-503, S471D/S472D/S475D/S476D/S477D/S483D/S484D/S487D)
Method: protein-binding microarray
Form: double-stranded DNA, one strand shown
Sample: in vitro
Tested at: 2200 nM top
Notes: 60-bp whole probe
With: salmon DNA 0.4 mg/ml
Reference: random background probes
Direction: higher = stronger binding
Quantity: fitted relative affinity
Constant ends, left off below: GCCTAGCAC … GTCTTGATTCGCTTGACGCTGCTG
Construct (chain): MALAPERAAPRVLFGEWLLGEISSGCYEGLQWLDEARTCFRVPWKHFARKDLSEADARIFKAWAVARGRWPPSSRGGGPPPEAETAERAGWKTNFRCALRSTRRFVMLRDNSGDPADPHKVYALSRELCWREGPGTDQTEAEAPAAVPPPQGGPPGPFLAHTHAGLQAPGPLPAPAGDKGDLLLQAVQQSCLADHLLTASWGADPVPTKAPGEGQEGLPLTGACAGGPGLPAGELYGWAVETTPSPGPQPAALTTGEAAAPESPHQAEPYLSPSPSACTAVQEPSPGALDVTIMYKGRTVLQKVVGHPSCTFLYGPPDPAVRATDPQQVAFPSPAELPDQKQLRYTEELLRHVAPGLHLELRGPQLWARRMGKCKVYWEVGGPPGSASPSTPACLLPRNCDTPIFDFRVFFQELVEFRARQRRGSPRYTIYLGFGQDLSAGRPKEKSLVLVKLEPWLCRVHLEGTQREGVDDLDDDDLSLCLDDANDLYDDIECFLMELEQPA
GACGCTATCGGTATCGGGACGTGCTAG: 0.707 z-score
GCCGGTTTCGGTTCCGGGACGTGCTAG: 13.3 z-score
GACGATCTCAGTTTCTAGACGTGCTAG: 1.41 z-score
TTAAGTATCCTTATCCTTTAGTGCTAG: 1 z-score
TCATATTTAAGACCTATGACTGTGCTA: 0.202 z-score
GACGGTTTCCTTTTCCAGACGTGCTAG: 5.46 z-score
TCACATTACAGCTATTTTACTGTGCTA: 1.35 z-score
GACGGTATCGCGACTGGGGACGTGCTA: -0.225 z-score
GACGTTTTTCATTTTTTTTTGTGCTAG: 1.94 z-score
TCAATTGGTTGAACATGACTGTGCTAG: 0.414 z-score
GACGGTATCGAATTTCGGGACGTGCTA: 1.08 z-score
TCAGATTTCAGTTTCGATTAGTGCTAG: 8.47 z-score
TCATTTTTCTAACTAAAACTGTGCTAG: 1.31 z-score
TTATATATCAGACTGGATTAGTGCTAG: 0.304 z-score
GACGATATCGGGTTTCGATACGTGCTA: 2.44 z-score
TCACAATTTGCTTTAGTACTGTGCTAG: 1.21 z-score
GACGATATCAGGTATCGAGACGTGCTA: 0.226 z-score
TTACATTCCCCATTGTGTTGGTGCTAG: 2.45 z-score
TCATATATGCATGTAAAACTGTGCTAG: 0.559 z-score
GACCGTCTCCTTCTCCTGACGTGCTAG: 1.44 z-score
GAAGATTTCGGGACTGGAGACGTGCTA: 0.654 z-score

Block 2
Target: RING finger protein unkempt homolog, zinc fingers 1-6, GST-SBP tag (UNK, Homo sapiens, UniProt Q9C0B0, residues 30-357)
Chain of UniProt Q9C0B0 (30-357, looked up): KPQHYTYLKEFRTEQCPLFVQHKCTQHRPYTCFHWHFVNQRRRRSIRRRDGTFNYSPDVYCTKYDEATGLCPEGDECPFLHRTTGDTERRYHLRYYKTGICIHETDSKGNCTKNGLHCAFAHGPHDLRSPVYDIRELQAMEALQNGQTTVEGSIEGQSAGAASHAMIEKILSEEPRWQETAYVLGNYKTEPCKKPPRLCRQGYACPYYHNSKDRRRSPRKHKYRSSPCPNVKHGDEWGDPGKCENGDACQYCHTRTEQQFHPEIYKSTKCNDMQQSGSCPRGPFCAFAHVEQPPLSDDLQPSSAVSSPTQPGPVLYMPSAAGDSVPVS
Method: RNA Bind-n-Seq
Form: RNA
Sample: in vitro
Tested at: not given
Notes: RNA with constant flanks, ends assumed
Reference: input RNA pool
Direction: higher = stronger binding
Quantity: bound/input enrichment
Constant ends, left off below: GGGAGUUCUACAGUCCGACGAUC … CAACAGAGGAUUGAGCAUCA
CCUGUUUUUGCCUCUCUCUGGCUUCUGGAAAGUGCUCCUUCAUGACAUCCCCUAUCUGCACCGUUCAAGCACCCCAAAUCUGCCCCUUCCUCCUUAAAGACUGGUAGAUGGGAUCAGCUC: 0.454 ratio
AGAGACUGAACAGUCCACAUCAUCAGCUCCUUAUACCUUCGCAGCCUCCCUCUCCAAACCCCGCAGGGCCCUGCUUCCCUCCCCACCUGACAUCCAGCCGUGGAUGAGGGGCCUGCUUAG: 0.701 ratio
CCAGUCCACAGGGGAAGCCUGUUAGGACUGUGGAGCGUGUUUCCCCGAAGGUAGCUUCCAACCCGGCUUUCCUCACUGCUUUCUCCCCCAGCGCCUGUAUUAUGUGAAGGAGGCCCAUGG: 0.152 ratio
UUCCACAUCAUUAUUCCAGUCAUGUGGAGCUUUGUAACUGGUCAUUUGCCUUCUUUCAUAAUCCGUGACGUAUGCGACGUAAAGCCACUAGAAAAGGCACAUCUUUUUAAUACUCAUUAU: 0.281 ratio
GAAGACUUCUGCCGAGAAGGUCUAUCUGAUAUCUUACCCAUUCUGCAUGGUUUAUGCCUGCCGUUGAGCCCAUUGUUGUGAAAUCUGUCCUUGUCCAGUACCUAGAUCUGUGGAGGUCAA: 0.269 ratio
CCUACAAUAAUGAAAACCUACAGGAAUUUUUUUAUUUUUCAUUUUCCCCUUAGGCAUAUUCCGUAUUUUUCCCCCAGGCAGAUCAUUCUGAGUGUGCGAGUGUGUGUGCACAUGUUACAA: 12.9 ratio
CUGAGAAAUAACCUCCGGAGCAUAGAGUGGGAUCUAGAGGACCUUGAUGAAACCAUCAGCACCGUUGAAGCAAAUCCUAGAAAAUUUAACCUUGAUGCAACUGAAUUGAGUAUAAGAAAA: 1.52 ratio

Block 3
Target: CCNA1, cyclin fold, Cln2 fusion (human)
Method: yeast growth competition, sequencing
Sample: yeast
Notes: weak parent motif
Reference: not given
Direction: higher = stronger binding
Quantity: normalised enrichment score
Starting sequence: BRCA2 docking peptide (human); PSIKRNLLNEFDR; partner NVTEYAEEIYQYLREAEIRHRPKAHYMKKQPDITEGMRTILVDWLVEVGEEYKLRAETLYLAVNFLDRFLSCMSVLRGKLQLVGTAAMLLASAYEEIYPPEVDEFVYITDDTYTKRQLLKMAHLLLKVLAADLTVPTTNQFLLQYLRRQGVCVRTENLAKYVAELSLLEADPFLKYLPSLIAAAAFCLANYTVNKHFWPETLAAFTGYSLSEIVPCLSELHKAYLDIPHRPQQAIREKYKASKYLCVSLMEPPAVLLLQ
PSIKRNLLNESDR [F11S]: -0.111
PSIKRNLLNEFDF [R13F]: 0.414
ASIKRNLLNEFDR [P1A]: 0.262
PTIKRNLLNEFDR [S2T]: 0.63
PSIKRNLLNDFDR [E10D]: 0.669
PSVKRNLLNEFDR [I3V]: 0.521
PSIKRNLLNEFDP [R13P]: 0.211
PSHKRNLLNEFDR [I3H]: 0.461
PSIKRNLNNEFDR [L8N]: 0.162
PSIKPNLLNEFDR [R5P]: 0.562
PSIKRNSLNEFDR [L7S]: 0.165
PSIKRNLLNELDR [F11L]: 0.134
PSWKRNLLNEFDR [I3W]: 0.412
PSIKRNLSNEFDR [L8S]: 0.512
PSIKENLLNEFDR [R5E]: 0.399
PSIKRNLLNEFRR [D12R]: 0.379
PSIKRYLLNEFDR [N6Y]: 0.129
PSIKRNWLNEFDR [L7W]: 0.166
PSIKRNLLEEFDR [N9E]: 0.43
PSIKRNLLLEFDR [N9L]: 0.603

Block 4
Target: RNA binding protein fox-1 homolog 2, RRM domain, GST-SBP tag (RBFOX2, Homo sapiens, UniProt O43251-10, residues 100-194)
Method: RNA Bind-n-Seq
Form: RNA
Sample: in vitro
Tested at: 365 nM
Notes: natural RNA segment, single round, ends assumed
Reference: no-protein control
Direction: higher = stronger binding
Quantity: RBNS enrichment (R)
Constant ends, left off below: GGGAGUUCUACAGUCCGACGAUC … UGGAAUUCUCGGGUGCCAA
Residues (chain): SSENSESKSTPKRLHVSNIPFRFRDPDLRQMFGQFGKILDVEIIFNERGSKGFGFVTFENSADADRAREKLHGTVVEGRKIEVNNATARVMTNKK
AGAAGUAAAGUUUAUUUCAUGGAUUAUUUAUGAGAGCUAAUUUAAGGAUGACUUUUUUUCUGAUUCAAAAGUGAACUUGAUUUUAAAAACCAGUCAAGAGCAAUCAAAGC: 0.476
CCUGUGUUCCCGAGCGCUUCCAGGACUCAUCGUGAGCAGCAGCAUGGAGGCCCCUUCCUGCUGACCUUGCACGCGAGGGAUGCUACUAGGGACUGCUGGGGAUCUUUUCU: 2.76
CAGAACAUAGCCUGCCAGCUCAUGGGUGCCAGUGGUUCUCAACUUGUGAGUUGCAACUCCUUUGUCAAACCUCUAGCUCAACUCAAAACAGUAGCAAAAUUAAUUGUGAA: 0.591
ACAGUCGUUGUUUGAAUCACCCGACUUCAGCAAGAUUACUGGCAAACCCGUGAAGCUCACCCAAGUGGAACACAGGGCUGCUUUCGAGUGGAAUGAAGAGGGGGCAGGAA: 2.21
AGAACUGGCCACCCAUCUGUCAGGCUCUUCCUUGGAAACGAAGAGCAGAGGUGGUCUCUAGGGGGAGGCUGGUGCCAUUCCCUCCUGCCUGGCUCAGACCUCUUAGACUG: 0.326
AUGAUGAAAAUUUAUACUUUCACAUAGGAAAAUAAUUGCCUUUCCAUUGCUCCUUCUGAAGCAUUUCUCAUGUCUAGGUUUUCCUUGGAAGCAUAUUUAGCCAUCUAUGU: 0.357
CUCCUUCUAUUAGGAAUGGCAUAUACUGAGGUGGUCGUAAGUCUUAACUUCUAAAAUUUUAAAUAAAGACUUUGCACAUUGAACCCCUUAUCCCUGAAUUGUGUUUGUCG: 2.47
CGGUCAGGGAUAUCAUUGGUGAAGUGAUUUCAAAAAGUAUUCAAAAUUUGAUAUGCUGUUUAGUCACUACAGUGCCCUCAAAGGGCAGAAGUUGCAGCCUUUUUUAUAUU: 0.406
UCAGGUUCCUGUGAUGCAGGCUGACAGCCAGGGAGCACAACAGAUGCUGGACAAAGAUGAAAGCGACCUUCAAGUCUCCCCCCAAGAUGGAACACUCAGUGCCGUAGCCC: 1.08
GAGGACUUGGUUUCUCAUCCACUUGAGGACUAUUUCCAGGUGCCAGGAGAAACCGUGCCCAUUUAGAAGAUGGGGCAUUAACUUGUGUAACAGGACUUGGUAGUUUCCAC: 0.286
UUCCUCUAGAAAUCCCAGCAGAAUCUGUUGCCUCCCCCAACCCCUAACUUUGCCACUUCAAGCCUCAAGACAGAUUCAUGUAGCAGUUCCUCAAAACCCCCUGGAGGGGC: 0.792
UUGGAUCAUGGCAGGUGCUUGUUCAAAGCCCUUUCUUGUUGCCUCUGCCAUCUGGGUGAAGUCUAGACCACUUGCUUGGCCUAGGUGUCUUCUGCUCUACCACCCACCCU: 0.345

Block 5
Target: Histone acetyltransferase KAT6A, winged helix 1, GST fusion (KAT6A, Homo sapiens, UniProt Q92794, residues 1-85)
Method: protein binding microarray
Form: double-stranded DNA, one strand shown
Sample: in vitro
Tested at: not given
Notes: 8-mer, flanks averaged, mean of 2 arrays, mostly near background
Reference: not given
Direction: higher = stronger binding
Quantity: E-score
Residues (chain): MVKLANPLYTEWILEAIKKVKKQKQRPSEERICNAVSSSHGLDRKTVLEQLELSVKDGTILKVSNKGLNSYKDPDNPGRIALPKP
GGGGCATA: -0.13
TAGTTCAA: -0.174
AGTTGTTG: -0.158
GGATGCAC: -0.0391
ACACTCTA: -0.108
CGTCTTTC: 0.0851
AGGAAGTC: -0.162
CGGGTCAG: 0.287
ACCATGGA: -0.155
CATAAAAG: -0.18
CTTTATCC: -0.0968
CGGAAGGC: 0.181
AAACGAGC: -0.122
GTCCCGGA: 0.195
ATCCATAA: -0.0996
CGCGAACA: 0.0902
CAAGGCGA: -0.179
CATTCAGA: -0.155
ACGTATCG: 0.0791
AGGTTTGC: -0.0863
AATACTTC: -0.136
AATTGGGG: -0.218
GGACTATA: 0.00594
CATTACCA: -0.169
AACGGAGA: 0.0191

Mixed results
PhoQ, residues 284 288 289 292 302 303 SQSLSM
fold induction (PhoP, residues 12 14 15 18 19 TTLRV (Escherichia coli, UniProt P23836); Sort-seq, refers to: YFP reporter; E. coli; PhoQ-PhoP variant library, with: 10 µM Mg2+; reference: high Mg2+ state, higher = stronger signaling): 1.4
